Results gathered from unrelated publications.
Each line is one published result; not all experiments were run side by side. Values joined by “and” are separate records of one study, mostly repeats; a detail may differ. ± gives the spread as reported.
MPO: Myeloperoxidase (MPO, Homo sapiens, UniProt P05164)
Sequence of UniProt P05164 (whole entry, looked up): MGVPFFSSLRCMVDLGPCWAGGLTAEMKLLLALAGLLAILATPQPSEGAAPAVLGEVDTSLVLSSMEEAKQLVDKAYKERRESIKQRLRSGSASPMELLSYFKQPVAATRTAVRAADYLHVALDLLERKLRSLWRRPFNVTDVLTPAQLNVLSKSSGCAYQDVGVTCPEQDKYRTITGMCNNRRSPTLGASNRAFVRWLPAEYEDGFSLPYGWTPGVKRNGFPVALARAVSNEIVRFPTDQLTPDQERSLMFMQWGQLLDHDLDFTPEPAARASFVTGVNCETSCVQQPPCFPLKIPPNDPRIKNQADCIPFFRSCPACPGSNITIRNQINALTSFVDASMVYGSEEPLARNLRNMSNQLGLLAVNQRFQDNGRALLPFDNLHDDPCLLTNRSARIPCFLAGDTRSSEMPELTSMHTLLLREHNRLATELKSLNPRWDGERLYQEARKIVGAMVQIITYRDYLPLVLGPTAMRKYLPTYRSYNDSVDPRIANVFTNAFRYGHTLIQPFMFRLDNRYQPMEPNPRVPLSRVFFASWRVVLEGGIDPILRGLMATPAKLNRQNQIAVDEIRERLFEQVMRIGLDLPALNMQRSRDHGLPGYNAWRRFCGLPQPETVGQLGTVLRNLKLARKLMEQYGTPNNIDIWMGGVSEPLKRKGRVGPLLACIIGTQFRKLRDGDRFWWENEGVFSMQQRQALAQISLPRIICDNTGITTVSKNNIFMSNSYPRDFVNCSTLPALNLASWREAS
MAP3K9: Mitogen-activated protein kinase kinase kinase 9 (MAP3K9, Homo sapiens, UniProt P80192)
Sequence of UniProt P80192 (whole entry, looked up): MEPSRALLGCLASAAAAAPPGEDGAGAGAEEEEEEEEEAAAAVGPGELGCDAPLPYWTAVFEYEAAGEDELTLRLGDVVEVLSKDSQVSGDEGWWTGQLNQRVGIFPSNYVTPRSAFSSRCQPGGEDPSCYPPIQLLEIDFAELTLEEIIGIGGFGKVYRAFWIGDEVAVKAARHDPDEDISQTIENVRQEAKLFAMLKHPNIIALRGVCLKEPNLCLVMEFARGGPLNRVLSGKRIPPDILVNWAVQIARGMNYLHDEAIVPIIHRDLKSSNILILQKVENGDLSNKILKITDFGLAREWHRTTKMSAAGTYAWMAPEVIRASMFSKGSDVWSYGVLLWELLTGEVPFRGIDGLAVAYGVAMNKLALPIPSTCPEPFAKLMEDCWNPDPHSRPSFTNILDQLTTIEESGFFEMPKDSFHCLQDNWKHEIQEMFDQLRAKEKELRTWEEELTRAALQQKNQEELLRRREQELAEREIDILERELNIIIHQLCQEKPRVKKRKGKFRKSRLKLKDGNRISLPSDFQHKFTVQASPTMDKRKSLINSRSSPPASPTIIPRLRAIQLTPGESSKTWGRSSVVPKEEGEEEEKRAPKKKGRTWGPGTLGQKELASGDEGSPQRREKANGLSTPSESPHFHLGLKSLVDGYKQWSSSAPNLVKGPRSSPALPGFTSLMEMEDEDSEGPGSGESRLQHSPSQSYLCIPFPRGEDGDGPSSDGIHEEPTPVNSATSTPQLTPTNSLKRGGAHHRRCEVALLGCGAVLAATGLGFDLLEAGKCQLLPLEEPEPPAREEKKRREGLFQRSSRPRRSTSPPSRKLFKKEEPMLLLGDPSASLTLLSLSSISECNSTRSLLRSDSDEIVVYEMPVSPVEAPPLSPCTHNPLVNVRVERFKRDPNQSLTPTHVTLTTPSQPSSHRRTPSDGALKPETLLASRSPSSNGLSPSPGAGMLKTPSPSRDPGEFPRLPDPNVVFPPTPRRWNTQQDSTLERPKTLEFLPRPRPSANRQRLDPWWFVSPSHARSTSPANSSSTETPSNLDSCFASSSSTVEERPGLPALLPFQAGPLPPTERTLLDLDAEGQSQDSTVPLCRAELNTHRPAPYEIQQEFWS
OXSR1: Serine/threonine-protein kinase OSR1 (OXSR1, Homo sapiens, UniProt O95747)
Sequence of UniProt O95747 (whole entry, looked up): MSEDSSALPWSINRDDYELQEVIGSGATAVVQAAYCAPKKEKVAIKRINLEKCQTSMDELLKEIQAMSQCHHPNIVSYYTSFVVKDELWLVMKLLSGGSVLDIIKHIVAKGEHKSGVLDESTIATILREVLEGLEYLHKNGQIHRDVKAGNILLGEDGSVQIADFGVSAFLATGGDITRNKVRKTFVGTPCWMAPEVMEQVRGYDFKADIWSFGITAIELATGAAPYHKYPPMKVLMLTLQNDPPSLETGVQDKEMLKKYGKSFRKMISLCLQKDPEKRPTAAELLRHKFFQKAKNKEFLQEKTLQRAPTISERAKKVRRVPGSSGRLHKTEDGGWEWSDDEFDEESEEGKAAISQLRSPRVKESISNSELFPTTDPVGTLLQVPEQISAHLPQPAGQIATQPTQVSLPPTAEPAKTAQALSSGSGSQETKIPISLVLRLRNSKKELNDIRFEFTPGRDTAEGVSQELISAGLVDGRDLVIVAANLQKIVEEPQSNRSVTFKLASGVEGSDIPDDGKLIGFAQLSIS
IKBKE: Inhibitor of nuclear factor kappa-B kinase subunit epsilon (IKBKE, Homo sapiens, UniProt Q14164)
Sequence of UniProt P11678 (whole entry, looked up): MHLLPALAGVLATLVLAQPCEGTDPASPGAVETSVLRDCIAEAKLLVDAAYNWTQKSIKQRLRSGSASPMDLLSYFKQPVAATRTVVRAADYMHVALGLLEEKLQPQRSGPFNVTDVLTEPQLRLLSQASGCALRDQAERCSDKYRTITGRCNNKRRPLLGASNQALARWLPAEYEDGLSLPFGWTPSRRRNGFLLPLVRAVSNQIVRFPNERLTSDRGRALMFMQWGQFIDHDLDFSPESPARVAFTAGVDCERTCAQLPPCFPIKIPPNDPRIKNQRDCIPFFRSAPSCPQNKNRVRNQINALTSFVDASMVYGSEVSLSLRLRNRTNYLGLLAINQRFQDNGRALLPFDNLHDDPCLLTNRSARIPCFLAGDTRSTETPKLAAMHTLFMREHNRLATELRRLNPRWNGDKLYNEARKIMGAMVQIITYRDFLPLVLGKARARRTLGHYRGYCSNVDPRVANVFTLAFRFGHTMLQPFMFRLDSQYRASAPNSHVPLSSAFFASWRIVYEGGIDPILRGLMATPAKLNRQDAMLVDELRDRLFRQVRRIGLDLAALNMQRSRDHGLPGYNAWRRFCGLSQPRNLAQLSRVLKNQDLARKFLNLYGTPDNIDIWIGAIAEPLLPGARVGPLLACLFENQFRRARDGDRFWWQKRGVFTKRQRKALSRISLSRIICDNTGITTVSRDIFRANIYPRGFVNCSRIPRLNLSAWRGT
Sequence of UniProt Q14164 (whole entry, looked up): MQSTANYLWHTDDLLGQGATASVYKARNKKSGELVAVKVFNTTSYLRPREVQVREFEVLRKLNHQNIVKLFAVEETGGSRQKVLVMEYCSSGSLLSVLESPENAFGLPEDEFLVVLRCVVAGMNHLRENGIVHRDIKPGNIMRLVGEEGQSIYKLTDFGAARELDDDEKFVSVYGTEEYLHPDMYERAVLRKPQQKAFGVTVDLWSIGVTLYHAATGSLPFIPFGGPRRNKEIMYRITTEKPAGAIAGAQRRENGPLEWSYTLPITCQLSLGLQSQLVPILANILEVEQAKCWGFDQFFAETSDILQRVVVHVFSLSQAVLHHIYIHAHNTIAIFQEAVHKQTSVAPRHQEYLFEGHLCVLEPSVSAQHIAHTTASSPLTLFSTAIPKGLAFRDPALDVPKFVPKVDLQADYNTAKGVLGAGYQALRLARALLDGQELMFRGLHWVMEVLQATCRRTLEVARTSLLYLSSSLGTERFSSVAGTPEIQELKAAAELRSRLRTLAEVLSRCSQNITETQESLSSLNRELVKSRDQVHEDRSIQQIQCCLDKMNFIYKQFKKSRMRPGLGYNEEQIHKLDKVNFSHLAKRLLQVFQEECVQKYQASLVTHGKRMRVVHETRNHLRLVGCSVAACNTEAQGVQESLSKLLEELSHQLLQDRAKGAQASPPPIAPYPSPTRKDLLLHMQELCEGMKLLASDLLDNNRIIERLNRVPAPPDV
Sequence of UniProt O60674 (whole entry, looked up): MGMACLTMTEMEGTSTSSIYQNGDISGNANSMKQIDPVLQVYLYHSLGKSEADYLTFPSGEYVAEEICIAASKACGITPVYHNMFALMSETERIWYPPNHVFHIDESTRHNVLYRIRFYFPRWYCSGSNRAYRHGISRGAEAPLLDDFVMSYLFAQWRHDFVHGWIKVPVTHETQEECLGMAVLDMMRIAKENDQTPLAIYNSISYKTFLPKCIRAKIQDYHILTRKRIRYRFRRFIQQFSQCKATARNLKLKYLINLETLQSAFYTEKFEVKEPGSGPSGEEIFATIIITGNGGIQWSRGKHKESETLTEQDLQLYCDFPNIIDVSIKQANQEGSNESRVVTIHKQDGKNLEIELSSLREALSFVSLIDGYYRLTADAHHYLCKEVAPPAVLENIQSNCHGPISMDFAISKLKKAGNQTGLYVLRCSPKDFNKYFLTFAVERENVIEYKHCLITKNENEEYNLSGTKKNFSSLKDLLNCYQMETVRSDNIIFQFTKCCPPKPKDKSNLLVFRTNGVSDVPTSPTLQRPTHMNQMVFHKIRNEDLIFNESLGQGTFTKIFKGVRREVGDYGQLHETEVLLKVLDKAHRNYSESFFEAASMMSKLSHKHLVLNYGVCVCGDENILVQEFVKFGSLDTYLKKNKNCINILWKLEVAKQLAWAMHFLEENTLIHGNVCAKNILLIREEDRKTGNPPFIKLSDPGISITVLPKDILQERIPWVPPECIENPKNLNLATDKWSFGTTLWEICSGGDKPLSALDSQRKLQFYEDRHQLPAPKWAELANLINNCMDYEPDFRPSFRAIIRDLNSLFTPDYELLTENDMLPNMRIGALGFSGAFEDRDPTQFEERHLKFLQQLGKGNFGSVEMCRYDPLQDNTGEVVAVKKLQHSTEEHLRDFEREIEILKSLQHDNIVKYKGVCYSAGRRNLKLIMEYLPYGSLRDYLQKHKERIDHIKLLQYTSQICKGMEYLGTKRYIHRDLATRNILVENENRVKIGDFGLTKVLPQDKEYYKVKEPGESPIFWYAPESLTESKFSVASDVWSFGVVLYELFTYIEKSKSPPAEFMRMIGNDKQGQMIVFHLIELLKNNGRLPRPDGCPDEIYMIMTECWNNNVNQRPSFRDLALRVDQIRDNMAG

SMILES | target or system | assay | system | setting | scale | quantity | result
O=C(O)c1ccc(Nc2ncc3c(n2)-c2ccc(Cl)cc2C(c2c(F)cccc2F)=NC3)cc1 | PRAK(h) | kinase activity | – | 1 µM | – | remaining activity | 110%
COc1cc2c(c(OC)c1OC)C(=O)c1c(cc(C)c(O)c1OC)C2=O | HK-2 co-cultured with HepaRG | MTT | – | 66.67 µM, 48 h | reference: untreated control | viability | 40.6 ± 6.6%
CNc1ncc2c(/C=C/C(=O)N3CCC(OC)CC3)nn(Cc3cccc(C(F)(F)F)c3)c2n1 | MAP3K2 (Homo sapiens, UniProt Q9Y2U5) | kinase activity, inhibitor | – | 1 µM | reference: untreated control | remaining activity | 103%
COc1cc(Nc2ncc3c(n2)-c2ccc(Cl)cc2C(c2c(F)cccc2OC)=NC3)ccc1C(=O)O | CSF1R | kinase activity | – | 1 µM | – | remaining activity | 52%
Cn1cc(-c2ccc(-c3cncc(Cl)c3N3CCC4(CCNC4=O)CC3)cc2)cn1 | COLO 205 | gene expression, microarray, refers to: ISG15 mRNA | – | concentration not given, 2 h | reference: untreated cells | log2 fold change | 2.59
COc1cc(F)ccc1-c1ncnc(Nc2cccc(C[S@](C)(=N)=O)c2)n1 | PRKG1 (Homo sapiens, UniProt Q13976) | kinase activity | – | 10 µM, added: 10 µM ATP | – | remaining activity | 102%
COc1ccc(Cl)cc1-c1cc(=O)[nH]c(=S)n1CC(N)=O | MPO | – | – | 0.156 µM, 0.1 h | – | remaining activity | 102%
COc1cc(Nc2cnc(C#N)c(O[C@H](C)CN(C)C)n2)ncc1-c1cnn(C)c1 | AMPK | radiometric | – | 1 µM | – | remaining activity | 12%
Cc1cc(NC(=O)c2cccc(NC(=O)/C=C/CN(C)C)c2)ccc1Nc1nccc(-c2cccnc2)n1 | Mitogen-activated protein kinase 8, phosphorylated (MAPK8, Homo sapiens, UniProt P45983) | enzyme activity after dialysis, inhibitor | – | 10 µM, 2 days, unit not given | reference: no inhibitor | remaining activity | 0.049
CC[C@H]1[C@@H](O)[C@@H]2[C@H](CC[C@]3(C)[C@@H]([C@H](C)CCNC(=O)NS(=O)(=O)c4ccc(C(C)(C)C)cc4)CC[C@@H]23)[C@@]2(C)CC[C@@H](O)C[C@@H]12 | Cytochrome P450 3A4 (CYP3A4, Homo sapiens, UniProt P08684) | – | human, plasma | arithmetic mean | – | Tlast | 72 h
COc1cc(-c2cncc3c2CN(C)Cc2cc(N4CCNCC4)ccc2-3)cc(OC)c1OC | MAP3K9 | kinase activity | – | 1 µM, human enzyme, added: ATP 10 µM | reference: DMSO control | remaining activity | 106%
O=C(NC1CCC1)c1ccc2nc(-c3cccc(NS(=O)(=O)NCCN4CCCCC4)c3)cn2c1 | OXSR1 | enzyme activity | – | 10 µM | – | remaining activity | 100%
CC#CC(=O)N1CCC[C@H]1c1nc(-c2ccc(C(=O)Nc3ccccn3)cc2)c2c(N)nccn12 | IKBKE | kinase activity, inhibitor, HotSpot radiometric | – | 100 nM, added: ATP 10 µM | – | remaining activity | 106 ± 4.1%
NC/C(=C\F)COc1cccc(Cn2c(=S)[nH]c(=O)c3[nH]cnc32)c1 | Eosinophil peroxidase (Homo sapiens, UniProt P11678) | H2O2 electrode | – | 10 µM | reference: control | remaining activity | 81% and 84.3% and 107%
Cc1[nH]c(/C=C2\C(=O)Nc3ccc(F)cc32)c(C)c1C(=O)N[C@H]1CCN(C(=O)N(C)C)C1 | JAK2 (Homo sapiens, UniProt O60674) | kinase activity, inhibitor | – | 0.1 µM | reference: no-compound control | remaining activity | 111%
COc1cc2c(c(O)c1OC)C(=O)c1c(cc(C)c(O)c1OC)C2=O | HK-2 co-cultured with HepaRG | MTT | – | 33.33 µM, 48 h | reference: untreated control | cell viability | 63.7 ± 7.75%
CC(C)C[C@H](NC(=O)C[C@H](O)[C@H](CC(C)C)NC(=O)[C@H](Cc1c[nH]cn1)NC(=O)CNC(=O)[C@@H](NC(=O)[C@H](C)NC(=O)[C@H](Cc1c[nH]c2ccccc12)NC(=O)[C@H](CCC(N)=O)NC(=O)[C@@H](Cc1ccccc1)NC(=O)COCCOCCNC(=O)CCC(C(=O)O)N1CCN(CC(=O)O)CCN(CC(=O)O)CCN(CC(=O)O)CC1)C(C)C)C(N)=O (stereo partly shown) [lutetium-177 labelled] | – | – | BALB/c nu/nu mice, PC-3 xenograft tumour | 750 pmol, 1 h, added: PA 300 µg | – | tissue uptake | 6 ± 1.3 %ID/g
C=CC(=O)N1CCC([C@@H]2CCNc3c(C(N)=O)c(-c4ccc(Oc5ccccc5)cc4)nn32)CC1 | IKBKE | kinase activity, inhibitor, HotSpot radiometric | – | 100 nM, added: ATP 10 µM | – | remaining activity | 93.3 ± 0.4%
C1=C/COCc2cc(ccc2OCCN2CCCC2)Nc2nccc(n2)-c2cccc(c2)COC/1 | EGFR (Homo sapiens, UniProt P00533, L861Q) | – | – | concentration not given | reference: untreated control | remaining activity | 83%
CC(C)OCCn1c(=S)[nH]c(=O)c2[nH]ccc21 | MPO | chlorination activity | – | 2.5 µM, 0.1 h, added: iodide, TMB | – | remaining activity | 17.7%
Cn1c(=O)n(-c2ccc(C(C)(C)C#N)cc2)c2c3cc(-c4cnc5ccccc5c4)ccc3ncc21 | AMPK | enzyme activity | – | 10 µM | – | remaining activity | 99%
C[C@@H](Oc1ccc(S(C)(=O)=O)cc1C(=O)N1C[C@@H]2C[C@]2(c2cc(C(F)(F)F)on2)C1)C(F)(F)F | SLC6A9 (Homo sapiens, UniProt P48067) | glycine uptake, inhibitor, [3H]glycine uptake | – | 0.002 µM, log concentration 2, added: [3H]glycine, 3.5 mg/mL methyl-β-cyclodextrin | reference: no inhibitor | remaining activity | 56.5%
Cc1cc(NC(=O)c2cccc3cc(-c4cccc5[nH]nc(N)c45)ccc23)ccc1F | TRPM7 (Homo sapiens, UniProt Q96QT4) | enzyme activity, kinase profiling panel | – | 0.1 µM | – | remaining activity | 106%
C=CC(=O)N1CCC[C@@H](n2nc(-c3ccc(Oc4ccccc4)cc3)c3c(N)ncnc32)C1 | FRK (Homo sapiens, UniProt P42685) | – | – | 0.1 µM | – | remaining activity | 138%
Cc1cc(Nc2cc(N3CCN(C)CC3)nc(Sc3ccc(NC(=O)C4CC4)cc3)n2)[nH]n1 | CAMK4 (Homo sapiens, UniProt Q16566) | kinase activity, KinaseProfiler | – | 0.03 µM, species human | reference: control | remaining activity | 107%
COc1cc(N2CCN(C)CC2)ccc1Nc1nc(N)n(C(=S)NCc2c(Cl)cccc2Cl)n1 | OXSR1 | enzyme activity | – | 10 µM | reference: control | remaining activity | 12%
COc1ccc(F)cc1C(=O)NCc1ccc(-c2nn([C@@H](C)C(F)(F)F)c(N)c2C(N)=O)cc1 | IKBKE | kinase activity, inhibitor, HotSpot radiometric | – | 100 nM, added: ATP 10 µM | – | remaining activity | 78.7 ± 0.2%
O=C1NC(=O)/C(=C/c2ccc(-c3ccc(F)cc3O)o2)S1 | MAP3K9 | enzyme activity | – | 10 µM | – | remaining activity | 53%

A few entries again:
SMILES | target or system | assay | system | setting | scale | quantity | result
COc1cc(N2CCN(C)CC2)ccc1Nc1nc(N)n(C(=S)NCc2c(Cl)cccc2Cl)n1 | OXSR1 | enzyme activity | – | 10 µM | reference: control | remaining activity | 12%
COc1ccc(F)cc1C(=O)NCc1ccc(-c2nn([C@@H](C)C(F)(F)F)c(N)c2C(N)=O)cc1 | IKBKE | kinase activity, inhibitor, HotSpot radiometric | – | 100 nM, added: ATP 10 µM | – | remaining activity | 78.7 ± 0.2%
